Results collected from several papers.
Protocols differ between the studies behind these lines.

Nc1ccc(-c2nc([C@H]3CCc4cc(-c5cc(Cl)ccc5-n5cnnn5)cc(=O)n43)c(F)[nH]2)c(F)n1 — Cmax (human, plasma; oral, 5 mg, single dose, fasted): 42.3 ng/mL
Cc1c(Cl)c(C)[n+]([O-])c(Cl)c1-c1noc(-c2cc(O)c(O)c([N+](=O)[O-])c2)n1 — Cmax (male human, plasma; oral, 50 mg, single dose, fasted, healthy volunteers, tablet): 2070 ng/mL
CNC(=O)c1ccc(-c2cnc3ncc(Cc4ccc5ncccc5c4)n3n2)cc1F — Cmax (human, plasma; oral, 450 mg twice daily, multiple doses, steady state, patients): 3200 ng/mL
C[C@@H](N)c1cc(Cl)ccc1Cn1c(=S)[nH]c(=O)c2[nH]ccc21 — Cmax (human, plasma; oral, 2.5 mg, multiple doses, once daily, healthy volunteers): 16.9 nM
N#Cc1ccc(-c2cnc3ccc(-c4ccc(C(=O)N5CCOCC5)cc4)cn23)cc1 — Cmax (human, plasma; oral, 10 mg, single dose, fed, healthy volunteers): 733 ng/mL
O=C(c1nc2n(n1)[C@H](c1ccccc1)C[C@@H]2F)C1CC1 — Cmax (human, plasma; oral, 5 mg, single dose, fasted, healthy volunteers): 98.6 ng/mL
CC(=O)O[C@@]12CO[C@@H]1C[C@H](O)[C@@]1(C)C(=O)[C@H](O)C3=C(C)[C@@H](OC(=O)[C@H](O)[C@@H](NC(=O)OC(C)(C)C)c4ccccc4)C[C@@](O)([C@@H](OC(=O)c4ccccc4)[C@H]21)C3(C)C — Cmax (human, plasma; intravenous, 75 mg/m², patients): 799 ng/mL
C[C@H](N)C(=O)N1C[C@H](CCCB(O)O)[C@](N)(C(=O)O)C1 — Cmax (human, plasma; oral, 100 mg twice daily, multiple doses, patients): 2050 ng/mL
C[C@H]1CO[C@@H]2Cn3cc(C(=O)NCc4ccc(F)cc4F)c(=O)c(O)c3C(=O)N12 — Cmax (human, plasma; oral, 30 mg, single dose, fasted, healthy volunteers): 3450 ng/mL
CC(C)[C@@H](CS(=O)(=O)C(C)C)N1C(=O)[C@@](C)(CC(=O)O)C[C@H](c2cccc(Cl)c2)[C@H]1c1ccc(Cl)cc1 — Cmax (human, plasma; oral, 60 mg, single dose, fasted, tablet): 431 ng/mL
Nc1ncc(-c2cnn(CCO)c2)c2scc(-c3ccc(NC(=O)Nc4cccc(F)c4)cc3)c12 — Cmax (human, plasma; oral, 340 mg, patients): 593 ng/mL
C#C[C@]1(CO)O[C@@H](n2cnc3c(N)nc(F)nc32)C[C@@H]1O — Cmax (human, plasma; oral, 30 mg, single dose, fed): 542 nM
CC(C)(O)c1ccccc1-c1ccc2[nH]c(/C=C/c3ccc(C(F)(F)F)cc3)nc2c1 — Cmax (male human, plasma; oral, 1 mg, single dose, fasted, healthy volunteers): 6 ng/mL
CNc1nc(Nc2ccc(-n3cnc(C)n3)c(OC)c2)nc2c1CC[C@H]2c1ccc(F)cc1 — Cmax (human, plasma; oral, 200 mg, multiple doses, once daily): 1980 ng/mL
Nc1cc(F)ccc1NC(=O)c1ccc(CNC(=O)/C=C/c2cccnc2)cc1 — Cmax (human, plasma; oral, 40 mg, patients): 590 ng/mL
CS(=O)(=O)n1cc2c(n1)CN([C@H]1CO[C@H](c3cc(F)ccc3F)[C@@H](N)C1)C2 — Cmax (male human, plasma; oral, 25 mg, single dose, fasted): 750 nM
CC[C@@]1(O)C(=O)OCc2c1cc1n(c2=O)Cc2cc3c(CN(C)C)c(O)ccc3nc2-1 — Cmax (human, plasma; oral, 4 mg, patients): 9.29 ng/mL
CNCc1ccc(-c2[nH]c3cc(F)cc4c3c2CCNC4=O)cc1 — Cmax (human, plasma; oral, 480 mg, multiple doses, twice daily, steady state, patients): 3170 ng/mL
O=C(CCCCCCC(=O)Nc1ccccc1)NO — Cmax (human, serum; oral, 1000 mg, patients): 8740 nM
CCOc1cc([C@@H](CS(C)(=O)=O)N2C(=O)c3cccc(NC(C)=O)c3C2=O)ccc1OC — Cmax (male human, plasma; oral, 20 mg, single dose, healthy volunteers): 246 ng/mL
C[C@@H]1CCC[C@H](n2cnc(-c3cc(Cl)ccc3-n3cc(Cl)nn3)cc2=O)c2cc(ccn2)-c2c(cnn2C(F)F)NC1=O — Cmax (human, plasma; oral, 500 mg, single dose, fasted, healthy volunteers): 1850 ng/mL
CN1CC[C@@H](NC(=O)Nc2ccc(C#N)cc2)C[C@@H]1c1nc2ccccc2[nH]1 — Cmax (human, plasma; oral, 50 mg, single dose, patients): 321 ng/mL
CCCCCN1C[C@H](O)[C@@H](O)[C@H](O)[C@@H]1CO — Cmax (male human, plasma; oral, 2000 mg, single dose, fasted, healthy volunteers): 16700 ng/mL
COc1cccc(-c2ccc(NC(=O)C3=C(C(=O)O)CCC3)c(F)c2)c1 — Cmax (male human, plasma; oral, 10 mg, single dose, fed, healthy volunteers): 1880 ng/mL
CCCOc1ccc([C@H]2CNC(=O)N2c2ccc3[nH]cnc3c2)cc1 — Cmax (human, plasma; oral, 10 mg, single dose, fasted): 36.2 ng/mL
CNC(=O)c1ccccc1Sc1ccc2c(/C=C/c3ccccn3)n[nH]c2c1 — Cmax (human, plasma; oral, 5 mg, single dose, fed): 17 ng/mL

For quick reference, copied from above:
C[C@H]1CO[C@@H]2Cn3cc(C(=O)NCc4ccc(F)cc4F)c(=O)c(O)c3C(=O)N12 — Cmax (human, plasma; oral, 30 mg, single dose, fasted, healthy volunteers): 3450 ng/mL
CC(C)[C@@H](CS(=O)(=O)C(C)C)N1C(=O)[C@@](C)(CC(=O)O)C[C@H](c2cccc(Cl)c2)[C@H]1c1ccc(Cl)cc1 — Cmax (human, plasma; oral, 60 mg, single dose, fasted, tablet): 431 ng/mL
Nc1ncc(-c2cnn(CCO)c2)c2scc(-c3ccc(NC(=O)Nc4cccc(F)c4)cc3)c12 — Cmax (human, plasma; oral, 340 mg, patients): 593 ng/mL
